Published values from different studies.
Every numbered part comes from another study and shows a few of its results, in no order.

Study 1 — method: protein binding microarray; molecule type: double-stranded DNA, one strand shown; matrix: in vitro; tested at: not given; reference: not given; direction: higher = stronger binding
Target: Histone acetyltransferase KAT6A, winged helix 2, GST fusion (KAT6A, Homo sapiens, UniProt Q92794, residues 85-181)
Notes: 8-mer, flanks averaged, mean of 2 arrays, mostly near background
Residues (chain): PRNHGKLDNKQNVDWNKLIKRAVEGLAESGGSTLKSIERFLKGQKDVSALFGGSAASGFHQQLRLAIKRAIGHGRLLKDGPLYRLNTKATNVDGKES
With `GGCCCAAC` the E-score was 0.0203.
With `CTGCGGGA` the E-score was 0.118.
For `ATGTGACG`, the E-score was -0.0794.
`AAGGTTCA` gave an E-score of 0.125.
With `AAAACCAT` the E-score was -0.0612.
`ATCAGCGG` gave an E-score of 0.0885.

Study 2 — method: protein-binding microarray; molecule type: double-stranded DNA, one strand shown; matrix: in vitro; tested at: 0.8 µM; notes: whole 60-bp probe, no competitor; direction: higher = stronger binding
Target: Centromere-binding protein 1, full length, N-terminal tag (CBF1, Saccharomyces cerevisiae, UniProt P17106, residues 1-351)
Sequence of UniProt P17106 (whole entry, looked up): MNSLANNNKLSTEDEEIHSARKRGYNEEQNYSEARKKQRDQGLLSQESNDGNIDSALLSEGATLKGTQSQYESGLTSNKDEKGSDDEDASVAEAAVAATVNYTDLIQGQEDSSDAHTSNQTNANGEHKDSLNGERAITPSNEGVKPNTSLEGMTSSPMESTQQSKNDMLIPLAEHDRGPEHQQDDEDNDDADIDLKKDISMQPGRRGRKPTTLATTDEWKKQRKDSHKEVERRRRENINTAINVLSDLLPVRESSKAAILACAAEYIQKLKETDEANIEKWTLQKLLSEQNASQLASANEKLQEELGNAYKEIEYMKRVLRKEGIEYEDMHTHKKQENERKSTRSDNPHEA
`GAATTATATATTACAGGTGATATTTGTATATGATAGGTCTTGATTCGCTTGACGCTGCTG` has a fluorescence intensity of 658 a.u.
`GAAACAAACCGCCGTCACGATGAGGCAGGTGTCTAGGTCTTGATTCGCTTGACGCTGCTG` has a fluorescence intensity of 606 a.u.
With `CCTAACTACTATAATGACACGATATAGCTTCGTACAGTCTTGATTCGCTTGACGCTGCTG` the fluorescence intensity was 553 a.u.
The fluorescence intensity of `TGTACGAAGCTATGACACCTGAGTATAGTAGTTAGGGTCTTGATTCGCTTGACGCTGCTG` is reported as 544 a.u.

Further values, each from its own experiment
Fmr1 C-terminal low-complexity region: Fragile X messenger ribonucleoprotein 1, C-terminal low-complexity region (Fmr1, Mus musculus, UniProt P35922)
G3BP1 full length: Ras GTPase-activating protein-binding protein 1, full length (G3BP1, Homo sapiens, UniProt Q13283)
Sequence of UniProt Q13283 (whole entry, looked up): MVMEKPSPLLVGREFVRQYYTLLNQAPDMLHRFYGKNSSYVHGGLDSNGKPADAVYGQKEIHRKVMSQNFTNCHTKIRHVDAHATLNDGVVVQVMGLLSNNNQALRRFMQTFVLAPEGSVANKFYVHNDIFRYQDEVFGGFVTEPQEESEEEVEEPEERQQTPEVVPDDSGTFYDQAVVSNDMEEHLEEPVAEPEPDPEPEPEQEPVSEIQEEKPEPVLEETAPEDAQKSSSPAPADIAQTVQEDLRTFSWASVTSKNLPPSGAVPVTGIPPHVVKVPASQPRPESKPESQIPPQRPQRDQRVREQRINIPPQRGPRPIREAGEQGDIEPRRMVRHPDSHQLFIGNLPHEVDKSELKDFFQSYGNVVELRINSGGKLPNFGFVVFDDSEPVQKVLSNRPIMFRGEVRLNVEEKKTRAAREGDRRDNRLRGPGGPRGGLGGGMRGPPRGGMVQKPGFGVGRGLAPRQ
The log2 enrichment of `GGGAGUUCUACAGUCCGACGAUCAAGUCCUGUGCUACACAUCGUAUGUACCGAAUCGGAAAGGAAAAAGGAAAAAAAGGAAAGUAUUAUGUUACGCCGUUCGGAUCUGCACUUUGGAAUUCUCGGGUGUCAAGG` is reported as -0.914 (Fmr1 C-terminal low-complexity region; RNA Bind-n-Seq; RNA, in vitro; 200 nM, whole 134-nt RNA, ends assumed, together with: 150 mM KCl; reference: input library, higher = stronger binding).
For `PhoQ, residues 284 288 289 292 302 303 GANMMA`, the fold induction was 13.8 (PhoP, residues 12 14 15 18 19 SEGLL (Escherichia coli, UniProt P23836); Sort-seq, measured: YFP reporter; E. coli; PhoQ-PhoP variant library, together with: 10 µM Mg2+; reference: high Mg2+ state, higher = stronger signaling).
`GGGAGUUCUACAGUCCGACGAUCUGUGCUACACAUCGUAUGUACCGAAUCGGGGUUUUUUUGGGGAAAAAGGGGUUUUUUUGGGGAAAGUAUUAUGUUACGCCGUUCGGAUCUUGGAAUUCUCGGGUGUCAAGG` gave a log2 enrichment of 0.391 (Fmr1 C-terminal low-complexity region; RNA Bind-n-Seq; RNA, in vitro; 200 nM, whole 134-nt RNA, ends assumed, together with: 150 mM KCl; reference: input library, higher = stronger binding).
`GGGAGUUCUACAGUCCGACGAUCAAGUCCUGUGCUACACAUCGUAUGUACCGAAUCGGAAAAGGAAAAGGGGAAAAGGGGAAAGUAUUAUGUUACGCCGUUCGGAUCUGCACUUGGAAUUCUCGGGUGUCAAGG (7-deaza-guanosine replaces G)` has a log2 enrichment of 0.51 (G3BP1 full length; RNA Bind-n-Seq; RNA, in vitro; 200 nM, whole 134-nt RNA, ends assumed, together with: 150 mM LiCl; reference: input library, higher = stronger binding).
For `GGGAGUUCUACAGUCCGACGAUCUCCUGUGCUACACAUCGUAUGUACCGAAUCGGGUUUUUGGGAAAAAAAGGGAAAAAGGGAAAGUAUUAUGUUACGCCGUUCGGAUCUGCAUGGAAUUCUCGGGUGUCAAGG (7-deaza-guanosine replaces G)`, the log2 enrichment was -1.38 (G3BP1 full length; RNA Bind-n-Seq; RNA, in vitro; 200 nM, whole 134-nt RNA, ends assumed, together with: 150 mM LiCl; reference: input library, higher = stronger binding).

Some of these lines once more (study 2):
`GAAACAAACCGCCGTCACGATGAGGCAGGTGTCTAGGTCTTGATTCGCTTGACGCTGCTG` has a fluorescence intensity of 606 a.u.
With `CCTAACTACTATAATGACACGATATAGCTTCGTACAGTCTTGATTCGCTTGACGCTGCTG` the fluorescence intensity was 553 a.u.
